Results of several laboratories.
Each numbered part is a random draw from the data of one study; scales do not carry over between parts. Changes are numbered by the printed parent chain.

Block 1 — method: RNA Bind-n-Seq; molecule type: RNA; medium: in vitro; tested at: not given; relative to: input RNA pool; direction: higher = stronger binding
Target: RING finger protein unkempt homolog, zinc fingers 1-6, GST-SBP tag (UNK, Homo sapiens, UniProt Q9C0B0, residues 30-357)
Notes: RNA with constant flanks, human and mouse sites, ends assumed
Target sequence (chain): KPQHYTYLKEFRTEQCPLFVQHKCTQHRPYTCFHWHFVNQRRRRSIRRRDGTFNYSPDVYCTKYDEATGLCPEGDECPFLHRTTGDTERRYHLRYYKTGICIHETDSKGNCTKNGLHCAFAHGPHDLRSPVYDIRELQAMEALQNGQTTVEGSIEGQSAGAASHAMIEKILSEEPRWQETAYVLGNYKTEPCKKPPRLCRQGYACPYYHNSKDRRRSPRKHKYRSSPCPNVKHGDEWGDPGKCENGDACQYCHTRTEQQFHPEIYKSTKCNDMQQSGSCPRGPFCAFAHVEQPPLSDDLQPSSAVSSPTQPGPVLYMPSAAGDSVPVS
| Oligonucleotide | bound/input enrichment [ratio] |
| --- | --- |
| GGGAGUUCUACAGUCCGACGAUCAAUAUCAUCCCUAGUACUUUUUUGCCUAAACAAGAAGGACCUUUUUUCUUGGACUUUAAUAGUACUGUCCCCAUCAAGACAACACAACUCCAAUGAUUGAGAACUCUCAGCUAUUACUGGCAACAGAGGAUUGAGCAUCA | 0.564 |
| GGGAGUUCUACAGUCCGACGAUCAUCAAUGCUGUGGUACUGUUGAUUUUAUUGAGUGCCCUGGCUGAUCCGGAUCAGUAUAACUUUUCAAGUUCUGAACUGGGAGGUGACUUUGAGUUCAUGGAUGAUGCCAACAUGUGCAUUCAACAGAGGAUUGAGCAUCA | 0.0619 |
| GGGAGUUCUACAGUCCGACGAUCCCAAAGAAACUCCAUUUAUGUCCCUUGUGUGGCAAAAAUUUCUCUAACAACUCAAACCUAAUUAGGCACCAGAGAAUACAUGCAGCUGAAAGACUGUGUAUGGGUGUGGACUGCACUGAACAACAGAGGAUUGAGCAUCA | 0.276 |
| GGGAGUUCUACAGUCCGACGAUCCCGGCCGCGUCUCCUUCCUCCCCCUUCCCUCCCCCUUUUUUGUUUUCCGUUCCCCUUCCCCCUCCCUUCCCCGUCCCCGACGACCGGAUCCAGAGGAGGCAGCUGCGGUGGCAGCUGCUGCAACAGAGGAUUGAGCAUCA | 1.32 |
| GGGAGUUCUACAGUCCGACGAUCAGGACUUCAUUCCUCCAUGUUUUCUUCCCUUAUCUUACUGUCAUUGUCCUUAAACCUUAUUUUAGAAAAUUGAUGAAGUAACAUGUUGCAUGUGGCUUACUCUGGCUAUAUCUAAGCCCGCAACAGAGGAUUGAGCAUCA | 4.15 |
| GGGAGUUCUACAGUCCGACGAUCGAAGAUUUCCUGAAAAAAUGGGAGACCCCUUCUCAGAAUACAGCCCAGUUGGAUCAGUUUGAUAGAAUCAAGACCCUUGGCACCGGCUCCUUUGGGCGAGUGAUGCUGGUGAAGCACAAGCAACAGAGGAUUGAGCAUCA | 0.447 |
| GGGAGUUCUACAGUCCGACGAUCGUUAAUCAUGAUUCAGAAGAUCUAGCUUCACCCUCUGAGUAUCCAGAAAAUGGAGAAAGAUUUAGCUUCCUGAGCAAACCUGUUGAUGAGAACAAUCAGCAGGAUGGAGAAGAUGACUCUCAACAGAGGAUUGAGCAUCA | 0.13 |
| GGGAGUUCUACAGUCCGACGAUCAGACUUUCCAGCUCAGAGAGUGAAGAGAGCUUUAUGUCCAAGAACUCUGAAGAUGAUGAGCUAACAAAAGAAUCGAAGCGAUCUGUUCGAAAACGGGGCCGAAGCACAGAUGACUAUUCACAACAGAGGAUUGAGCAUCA | 0.125 |
| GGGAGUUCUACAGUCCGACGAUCGACAGUGAAGGCCCACUGUGUGAAUUGCUUUUUUUCUUCCUGACUGCAAUCUUCCAGGCGAUGGCUGAAGAAGAGGAGGAAGUAGCCAAAGAGCAGAUAACUGAUGCUGACACCAAAGAUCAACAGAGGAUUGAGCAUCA | 0.0799 |
| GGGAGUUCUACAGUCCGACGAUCGUGUGGCGCGGGGCGGUGCGUGACUACCAGGAGCGCGUGGCUCACAUGGAGAGCUCGCUGGGCCAGGCCCGCGAGCGUCUGGGCCAAGCCGUGCGGGGCGCUCGGGAGAGUCGCUUAGAGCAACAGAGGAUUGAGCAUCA | 0.118 |
| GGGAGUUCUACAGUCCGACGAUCAGAGAAGAGUUGGUUGAUCGUGUUUUUGAUGAAAGCCUCAACUUCCGAAAGAUUCCUCCAUUAGUUCAUUCCAAAACACCAGAAGGAAACAACGGUCGAUCUGGUGAUCCAAGACCUCAACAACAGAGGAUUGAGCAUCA | 0.213 |

Block 2 — method: protein-binding microarray; molecule type: double-stranded DNA, one strand shown; medium: in vitro; tested at: 2200 nM top; notes: 60-bp whole probe; added: salmon DNA 0.4 mg/ml; relative to: random background probes; direction: higher = stronger binding; all sequences stand within: GCCTAGCAC … GTCTTGATTCGCTTGACGCTGCTG
Target: Interferon regulatory factor 7, full length, phosphomimetic (IRF7, Homo sapiens, UniProt Q92985, residues 1-503, S471D/S472D/S475D/S476D/S477D/S483D/S484D/S487D)
Chain of UniProt Q92985 (whole entry, unmodified, looked up): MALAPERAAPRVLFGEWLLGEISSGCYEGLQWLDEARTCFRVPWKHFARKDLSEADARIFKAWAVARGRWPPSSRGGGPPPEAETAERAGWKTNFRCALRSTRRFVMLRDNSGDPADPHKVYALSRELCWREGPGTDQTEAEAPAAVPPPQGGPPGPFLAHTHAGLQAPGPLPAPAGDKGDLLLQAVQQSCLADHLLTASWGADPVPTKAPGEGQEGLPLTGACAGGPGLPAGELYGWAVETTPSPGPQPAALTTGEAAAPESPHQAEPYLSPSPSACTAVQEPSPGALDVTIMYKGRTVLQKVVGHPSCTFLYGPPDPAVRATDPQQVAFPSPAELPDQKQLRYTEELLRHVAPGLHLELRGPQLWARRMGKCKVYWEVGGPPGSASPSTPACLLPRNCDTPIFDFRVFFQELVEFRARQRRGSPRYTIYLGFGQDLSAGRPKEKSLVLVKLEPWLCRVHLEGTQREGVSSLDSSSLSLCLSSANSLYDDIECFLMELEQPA
| Oligonucleotide | fitted relative affinity |
| --- | --- |
| AGATGGTCCTCTCTCTATTCGTGCTAG | 1.05 z-score |
| GTCGGTTTCGGTCTCGGGACGTGCTAG | 8.68 z-score |
| CACGATTTCAGTTTCGAGACGTGCTAG | 6.02 z-score |
| TCAGCTTCCTCTTTCTCACTGTGCTAG | 2.56 z-score |
| TGCTGTCTCAGAGTCCTCTGGTGCTAG | 0.146 z-score |
| TTAGAATTCGGGTATCGATTAGTGCTA | 0.393 z-score |
| TCAAAAAATGGAAATCTAACTGTGCTA | -1.39 z-score |
| GACGGTATCGGGACTGGGAACGTGCTA | -0.599 z-score |
| GACGGTATCCTAATGCTGACGTGCTAG | 0.346 z-score |
| TTAGGTTTCGGTTTCCGTTAGTGCTAG | 14.1 z-score |
| ATGCATTGTTATTTGTCAATGTGCTAG | 1.22 z-score |
| TTAGGACTGCTACTGCTGTAGTGCTAG | -0.502 z-score |
| TCACATCTCACTCTAATACTGTGCTAG | 1.69 z-score |
| GACCGACTGCTACTGCTGACGTGCTAG | -0.174 z-score |
| GACGGACTGGTTCTCCTGACGTGCTAG | -0.136 z-score |
| TTAGATATCGGGACTAGATTAGTGCTA | -0.331 z-score |
| TCACCCCTAGGGGGCAGTATGTGCTAG | 0.193 z-score |
| TTAGGTCTCGGACTGAGTTAGTGCTAG | -0.208 z-score |
| GACGAACTGGGGACTGGTGACGTGCTA | -0.213 z-score |
| GAGATGATCCAGTTTTACCTGGTGCTA | 0.22 z-score |
| TTAGGTCACGGTCTCGGTTAGTGCTAG | 0.239 z-score |
| TCAGGTTTCGGTATCGGTTAGTGCTAG | 8.23 z-score |
| GACAATCTCAGACTGGAGACGTGCTAG | -0.211 z-score |
| TTAGGTTTCCTACTGTTTTAGTGCTAG | 1.24 z-score |
| TTAGGACTGGGTATCGGTAAGTGCTAG | -0.347 z-score |

Block 3 — method: DHFR PCA, deep sequencing; medium: yeast; added: (+)-ABA 710 µM; relative to: wild-type fitted maximum; direction: higher = stronger binding
Target: ABI1, truncated, D143A, DHFR fusion (Arabidopsis thaliana)
Notes: methotrexate growth selection, single substitutions
Starting sequence: PYL1, truncated, DHFR fusion (Arabidopsis thaliana); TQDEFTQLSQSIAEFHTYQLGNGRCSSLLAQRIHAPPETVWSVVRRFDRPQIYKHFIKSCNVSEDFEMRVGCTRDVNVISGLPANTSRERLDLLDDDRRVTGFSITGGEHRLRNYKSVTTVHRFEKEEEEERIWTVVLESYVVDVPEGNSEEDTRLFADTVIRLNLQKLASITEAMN; partner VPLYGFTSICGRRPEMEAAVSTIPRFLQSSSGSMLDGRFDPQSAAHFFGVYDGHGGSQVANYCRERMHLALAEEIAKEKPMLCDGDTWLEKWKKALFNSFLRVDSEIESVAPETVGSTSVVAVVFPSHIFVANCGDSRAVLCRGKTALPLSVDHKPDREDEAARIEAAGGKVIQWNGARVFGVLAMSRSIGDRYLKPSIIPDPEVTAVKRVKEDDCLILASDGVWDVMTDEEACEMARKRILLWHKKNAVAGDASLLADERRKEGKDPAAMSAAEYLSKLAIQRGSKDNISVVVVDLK
| Change | relative binding score |
| --- | --- |
| L169R | -0.0564% |
| N22R | 103% |
| L94E | 16% |
| E89K | -20% |
| G102I | 69.4% |
| I52M | 95% |
| H16D | 5.2% |
| D95P | -1.34% |
| T6K | 112% |
| V118K | 84.7% |
| F56C | 92.6% |
| N22F | 98.1% |
| Q167G | 99.9% |
| E131G | 106% |
| V78E | -0.819% |
| V142M | 101% |
| A170R | 103% |
| L91P | 1.15% |
| L164H | 101% |
| Y115F | 103% |
| N165H | 64.9% |
| M176R | 102% |
| V143T | 96.8% |

Block 4 — method: DNA-protein interaction ELISA; molecule type: double-stranded DNA, one strand shown; medium: in vitro, bacterial lysate; tested at: not given; notes: whole dsDNA probe, crude lysate protein; relative to: highest signal in screen; direction: higher = stronger binding
Target: Probable WRKY transcription factor 33, N-terminal DNA-binding domain (WRKY33, Arabidopsis thaliana, UniProt Q8S8P5, residues 169-264)
Construct (chain): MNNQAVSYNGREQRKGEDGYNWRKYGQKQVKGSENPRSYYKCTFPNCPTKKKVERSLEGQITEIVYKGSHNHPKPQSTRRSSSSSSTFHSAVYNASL
| Oligonucleotide | relative absorbance |
| --- | --- |
| AAAAAAAGTAGTTACTGCGAAAGTCTAAAA | 25.3 % of maximum |
| AAAAAAGTTTCCTACTTGTGTCTGTGAAAA | 21.8 % of maximum |
| AAAAAATCTGTTCTCGTTTCCCCTTCAAAA | 26.1 % of maximum |
| AAAAAAGGGGTCCTTTTCCAATGTCTAAAA | 21.5 % of maximum |
| AAAAAACGCATCATAGCTACGCCCCAAAAA | 24.7 % of maximum |
| AAAAAACAACTTGGAGGATTTACAGCAAAA | 23.6 % of maximum |
| AAAAAATTCCGGCTTGACGCTGCATAAAAA | 24.8 % of maximum |
| AAAAAATCTTACCCCTCCGCTTCTATAAAA | 17.8 % of maximum |
| AAAAAACCTTACTGTTGATTCTGGTTAAAA | 22.9 % of maximum |
| AAAAAACCCTAACGAATGCTTTTCGGAAAA | 22.4 % of maximum |
| AAAAAACCTACGATGGTTCTGATCTTAAAA | 18.8 % of maximum |
| AAAAAACATCGCTGTCGTTGACGTTGAAAA | 66.4 % of maximum |
| AAAAAATCTAGGGGTACCTATTTGGCAAAA | 25 % of maximum |

Block 5 — target: CCND3, cyclin fold, Cln2 fusion (human); method: yeast growth competition, sequencing; medium: yeast; notes: weak parent motif; relative to: not given; direction: higher = stronger binding
Starting sequence: E2F1 docking peptide (human); PPVKRRLDLETDH
| Change | normalised enrichment score |
| --- | --- |
| PPVKNRLDLETDH [R5N] | 0.133 |
| PCVKRRLDLETDH [P2C] | 0.182 |
| PPVKRRLDLPTDH [E10P] | 0.11 |
| PPVKRILDLETDH [R6I] | 0.113 |
| PPVKRRLDLVTDH [E10V] | 0.143 |
| PPFKRRLDLETDH [V3F] | 0.157 |
| PPVKLRLDLETDH [R5L] | 0.118 |
| PPVKGRLDLETDH [R5G] | 0.0274 |
| PPVKRRLDLEQDH [T11Q] | 0.0407 |
| PPVKRRIDLETDH [L7I] | 0.104 |
| PPVKRGLDLETDH [R6G] | 0.0856 |
| GPVKRRLDLETDH [P1G] | 0.106 |
| PPVYRRLDLETDH [K4Y] | 0.131 |
| PPVKRRLDLETMH [D12M] | 0.0949 |
| PPRKRRLDLETDH [V3R] | 0.178 |
| PPVKRRLDLDTDH [E10D] | 0.228 |
| PPYKRRLDLETDH [V3Y] | 0.153 |
| PPVKRRLDLETDC [H13C] | 0.125 |
